Published values gathered from unrelated publications.
Each numbered part is a random draw from the data of one study; scales do not carry over between parts. Changes are numbered by the printed parent chain.
UniProt Q38830, sequence (whole entry, looked up): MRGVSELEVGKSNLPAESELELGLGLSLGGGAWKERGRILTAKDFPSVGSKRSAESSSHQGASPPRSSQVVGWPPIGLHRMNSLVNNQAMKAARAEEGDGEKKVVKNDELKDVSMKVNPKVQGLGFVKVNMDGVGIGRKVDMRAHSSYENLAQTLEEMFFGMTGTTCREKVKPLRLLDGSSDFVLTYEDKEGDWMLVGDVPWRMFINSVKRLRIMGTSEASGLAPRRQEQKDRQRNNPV
UniProt Q9M1R4, sequence (whole entry, looked up): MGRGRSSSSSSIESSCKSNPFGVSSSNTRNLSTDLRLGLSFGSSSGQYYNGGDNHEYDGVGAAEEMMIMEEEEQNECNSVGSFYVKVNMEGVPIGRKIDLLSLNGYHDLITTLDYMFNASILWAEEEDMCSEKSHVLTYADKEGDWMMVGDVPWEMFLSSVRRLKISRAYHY
UniProt Q38831, sequence (whole entry, looked up): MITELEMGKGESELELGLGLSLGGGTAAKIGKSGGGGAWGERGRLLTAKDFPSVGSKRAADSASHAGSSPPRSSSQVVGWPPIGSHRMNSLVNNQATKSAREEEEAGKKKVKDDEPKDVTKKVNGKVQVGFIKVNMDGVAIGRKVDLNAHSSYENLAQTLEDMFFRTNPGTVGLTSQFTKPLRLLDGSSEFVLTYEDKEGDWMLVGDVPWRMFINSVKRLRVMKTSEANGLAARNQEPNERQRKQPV
UniProt Q9SKN5, sequence (whole entry, looked up): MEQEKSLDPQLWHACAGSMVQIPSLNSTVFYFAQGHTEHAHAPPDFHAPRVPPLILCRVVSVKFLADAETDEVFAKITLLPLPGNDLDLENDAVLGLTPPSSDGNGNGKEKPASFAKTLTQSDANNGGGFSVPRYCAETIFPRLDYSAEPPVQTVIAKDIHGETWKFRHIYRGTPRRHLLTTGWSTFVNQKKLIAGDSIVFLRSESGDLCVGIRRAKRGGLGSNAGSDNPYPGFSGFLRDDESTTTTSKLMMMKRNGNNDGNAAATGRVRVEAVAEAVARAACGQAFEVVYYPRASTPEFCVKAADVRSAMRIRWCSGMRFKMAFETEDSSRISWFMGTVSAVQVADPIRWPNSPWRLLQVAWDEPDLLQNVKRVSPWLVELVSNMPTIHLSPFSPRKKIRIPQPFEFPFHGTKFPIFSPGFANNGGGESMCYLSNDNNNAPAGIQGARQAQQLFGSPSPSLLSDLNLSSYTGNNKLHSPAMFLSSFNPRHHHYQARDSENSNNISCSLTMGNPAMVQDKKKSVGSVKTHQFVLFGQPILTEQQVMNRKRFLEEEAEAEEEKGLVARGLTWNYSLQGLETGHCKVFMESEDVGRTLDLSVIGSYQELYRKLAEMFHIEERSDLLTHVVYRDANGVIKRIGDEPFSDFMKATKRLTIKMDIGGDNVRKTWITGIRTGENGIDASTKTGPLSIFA
UniProt Q9ZTX8, sequence (whole entry, looked up): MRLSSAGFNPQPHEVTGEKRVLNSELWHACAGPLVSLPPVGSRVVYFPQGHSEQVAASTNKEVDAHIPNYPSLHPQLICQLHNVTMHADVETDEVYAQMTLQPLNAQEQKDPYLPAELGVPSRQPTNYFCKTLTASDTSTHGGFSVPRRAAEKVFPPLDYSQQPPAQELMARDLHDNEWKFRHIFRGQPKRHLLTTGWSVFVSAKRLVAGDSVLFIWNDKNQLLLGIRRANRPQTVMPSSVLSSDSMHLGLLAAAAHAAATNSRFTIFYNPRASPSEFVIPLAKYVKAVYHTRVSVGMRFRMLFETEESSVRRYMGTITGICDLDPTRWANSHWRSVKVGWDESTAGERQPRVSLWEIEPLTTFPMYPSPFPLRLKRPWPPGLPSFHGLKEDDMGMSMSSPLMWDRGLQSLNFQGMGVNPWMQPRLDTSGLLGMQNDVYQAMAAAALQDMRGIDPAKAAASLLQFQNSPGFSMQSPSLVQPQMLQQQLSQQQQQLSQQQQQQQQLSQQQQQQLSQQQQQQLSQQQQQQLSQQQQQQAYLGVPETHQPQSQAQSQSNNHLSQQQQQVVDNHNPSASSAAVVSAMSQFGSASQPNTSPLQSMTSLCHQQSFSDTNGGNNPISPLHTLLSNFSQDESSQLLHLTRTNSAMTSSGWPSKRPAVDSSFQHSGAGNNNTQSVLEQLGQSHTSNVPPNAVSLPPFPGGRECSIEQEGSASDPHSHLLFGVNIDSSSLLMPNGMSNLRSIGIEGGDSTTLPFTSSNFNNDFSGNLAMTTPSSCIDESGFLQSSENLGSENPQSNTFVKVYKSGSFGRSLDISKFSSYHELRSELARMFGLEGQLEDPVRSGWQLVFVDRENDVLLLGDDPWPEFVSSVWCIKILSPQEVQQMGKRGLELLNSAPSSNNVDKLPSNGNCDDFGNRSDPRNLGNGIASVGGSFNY

Set 1 — method: two-hybrid; relative to: out of 4 tests; direction: higher = firmer interaction
Molecule: IAA7 (Arabidopsis thaliana, UniProt Q38825)
UniProt Q38825, sequence (whole entry, looked up): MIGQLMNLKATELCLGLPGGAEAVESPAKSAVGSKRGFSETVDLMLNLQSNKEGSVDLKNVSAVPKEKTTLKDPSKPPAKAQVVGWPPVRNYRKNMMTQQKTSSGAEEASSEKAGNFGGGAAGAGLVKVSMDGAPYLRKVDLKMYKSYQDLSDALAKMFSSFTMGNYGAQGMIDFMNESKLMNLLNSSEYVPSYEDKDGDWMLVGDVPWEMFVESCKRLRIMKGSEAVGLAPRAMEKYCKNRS
partner | notes | positive tests
ARF6 790-935 (Arabidopsis thaliana, UniProt Q9ZTX8) | – | 4
IAA13 (Arabidopsis thaliana, UniProt Q38831) | – | 2
IAA30 (Arabidopsis thaliana, UniProt Q9M1R4) | weak activation fusion | 2
IAA12 (Arabidopsis thaliana, UniProt Q38830) | – | 4
ARF10 575-693 (Arabidopsis thaliana, UniProt Q9SKN5) | – | 0

Set 2 — method: DHFR PCA, deep sequencing; sample: yeast; with: (+)-ABA 4.8 µM; relative to: wild-type fitted maximum; direction: higher = stronger binding
Target: ABI1, truncated, D143A, DHFR fusion (Arabidopsis thaliana)
Notes: methotrexate growth selection, single substitutions
Parent: PYL1, truncated, DHFR fusion (Arabidopsis thaliana); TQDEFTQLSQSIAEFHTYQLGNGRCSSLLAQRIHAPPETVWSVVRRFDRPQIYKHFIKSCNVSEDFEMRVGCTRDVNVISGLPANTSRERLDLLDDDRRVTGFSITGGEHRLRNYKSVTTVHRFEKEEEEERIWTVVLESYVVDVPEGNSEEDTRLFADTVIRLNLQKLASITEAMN; partner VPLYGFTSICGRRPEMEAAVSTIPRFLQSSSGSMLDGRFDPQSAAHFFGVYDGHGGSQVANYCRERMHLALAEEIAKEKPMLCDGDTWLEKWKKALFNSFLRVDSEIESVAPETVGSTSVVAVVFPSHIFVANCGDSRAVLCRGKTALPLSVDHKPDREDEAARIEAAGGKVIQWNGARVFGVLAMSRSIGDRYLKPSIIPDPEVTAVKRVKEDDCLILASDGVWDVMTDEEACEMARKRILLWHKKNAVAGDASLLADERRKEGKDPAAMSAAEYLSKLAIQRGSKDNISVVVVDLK
Variant | relative binding score
N165A | -3.36%
R74I | 8.74%
F66E | 49.1%
R163D | -7.94%
D92Y | 6.45%
T73G | 4.87%
R111G | 5.16%
V145R | 4.4%
R45V | -1.86%
R90Y | -4.85%
I52P | -0.193%
A158K | -4.32%
E109D | 114%

Set 3 — method: RNA Bind-n-Seq; molecule type: RNA; sample: in vitro; concentration: 100 nM; relative to: input RNA pool; direction: higher = stronger binding
Target: RING finger protein unkempt homolog, zinc fingers 1-6, SBP tag (UNK, Homo sapiens, UniProt Q9C0B0, residues 30-357)
UniProt Q9C0B0, sequence (30-357, looked up): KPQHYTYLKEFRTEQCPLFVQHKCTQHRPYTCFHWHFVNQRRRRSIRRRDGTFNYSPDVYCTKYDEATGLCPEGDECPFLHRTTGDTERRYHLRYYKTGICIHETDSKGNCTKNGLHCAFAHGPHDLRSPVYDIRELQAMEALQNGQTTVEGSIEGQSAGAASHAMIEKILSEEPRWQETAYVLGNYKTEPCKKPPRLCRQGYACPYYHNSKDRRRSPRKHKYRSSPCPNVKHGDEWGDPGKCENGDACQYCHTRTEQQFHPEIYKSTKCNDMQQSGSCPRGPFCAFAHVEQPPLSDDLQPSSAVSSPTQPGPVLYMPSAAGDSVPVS
Notes: RNA with constant flanks, vertebrate orthologous sites, ends assumed
Constant ends, left off below: GGGAGUUCUACAGUCCGACGAUC … CAACAGAGGAUUGAGCAUCA
Strand | bound/input enrichment [ratio]
AUAACGUGUUUCUAUUUGUUGAGGAUAAUUUUGUGAUAAGCUUGUGUUAGAGUUAAAAAUUAGUGAAUUAAUUCCUCUUCAUUGUGUUGCUUUUGUUAUUGAAAAUAAAUGGAACUUUGU | 0.316
UGUCUGCCUCAUUCUGAAAUUUACACAGUAGACCAUUUGUCAUCCAUGCUGUCCCACAAAUAGUUUUUUGUUUACGAUUUAUGACAGGUUUAUGUUACUUCUAUUUGAAUUUCUAUAUUU | 1.29
CUCCCCUUAAUCCCAUCUCAUCUGUUUCAUAGUGCUGAAAUUCUGUCUUCAGCCUUAUUUUUAGCGAACUUAUUCUAAUUCUAGUGAAACUUCCAGUGUGGAUACUGUGAGCUAUAUGGA | 1.98
AAGCCCUAGUUCUUGAACCAACACCCAUAAAAGAUUUAGAAAAAAGUUUACAACAUAAUCUAGUUUACGAAGACGCCUUGUGCUAGAAUACUUUUUAAAAAGUAUUUUUGAAUACCAUUA | 0.741
UCUCUUGCUUAACUGUGUCCGAAGUUGCUAUGAGGAUUGGAAACAUUCAUUAGUUUCAUGUAGAACUACACUGGCAGGUGCUCAGUUCCCAUCAUAGCAAGAUCAAAUACCAUCACAGUA | 0.64

Set 4 — method: RNA Bind-n-Seq; molecule type: RNA; sample: in vitro; concentration: 365 nM; relative to: no-protein control; direction: higher = stronger binding
Target: RNA binding protein fox-1 homolog 2, RRM domain, GST-SBP tag (RBFOX2, Homo sapiens, UniProt O43251-10, residues 100-194)
Notes: natural RNA segment, single round, ends assumed
Constant ends, left off below: GGGAGUUCUACAGUCCGACGAUC … UGGAAUUCUCGGGUGCCAA
Residues (chain): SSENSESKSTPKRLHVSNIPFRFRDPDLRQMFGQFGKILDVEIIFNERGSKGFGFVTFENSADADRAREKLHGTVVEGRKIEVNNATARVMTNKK
Strand | RBNS enrichment (R)
GCAGAAGAGUGACCAGGAGCUUCGGCCAGGGAGACGGCGUGCAGGCCACUUGGCCUCCACUUGGUUUCUUCCCCACAUCUCUCACUUGGGCUGGGAACUGACAGAGGAGC | 0.382
CGGACUCCUGGGCAGCACCCAGCCUGACAGUGUCGAGUAUAUUAUUAUUAAUAUUAUUAUGACUUUUUGUAAGAGACUGAGGCAAGGCCACGCUUCGCUGCUACCACCCU | 0.286
GAGGCGGAGGUUGCAGUGUGCCAAGAUCAUACCACUGCACUCCAGCCCUGGUGACAGAGGAGACCCCGUCUCAAAAAUUGAUUGAUCAAUUCAGCAUCUGAGGGCUGCAA | 0.407
UUUGAAGGAUUUUUCUUUCUGAACUUUUUAAAUUUUUAUAUUUUCCUGCCAUACAUCUACAAAGUGGGUUUUGAGUGAGGGCAGGUGGCCCAGUGGCUUUGGGUGGCGAC | 1.37
CCUUGCCUUUCCUUUCCUGAAACUCUUUCAACACAACUGUGUCUAUAUGACUACGGCUCAUGCUUCCAAGGUCAGCUCACAUGUGACCUCUGUGAGCUGUUCCCUCGCCU | 1.15
ACUCAUGGAGCUUGUUUCAGCUCCUCACUUCUUGACUGUAUUUGUACUAUGUUGAAAAAAUAUCCUGUCCACAAAGACAUAAGCCUAACAACCUAGAAAAACAACAGGGU | 0.526
CUCACUCCCACUAUCUCUACGGACACAUGCUCUCCGCCUUCCGGGACUAGCCACGGCCCCCAGGGCGGGUGUCCUGGUUUCACAGGCUCAGCCGGCCCUGACCCUUCCUG | 0.376
CUGUUUUUGUGAGAGACUUUUGCCUUCGUAAUGUUAACCGUUUCAGGACCACGUUUAUAGCUUCAGGACCUGGCUACGUAAUUAUACUUAAAAUAUCCACUGGACACUGU | 0.33
CAGCCCAAACUUUUAAGAUGACCCAAAGUCGUGAGAAUAGGAAAAAGGAAUCUGAUUAACAUUUAUGCAUUUUAUUUUCAGAAGGACUUUCAGUUAUCCAUAAAUCUAAG | 0.87
CAGGGACACUGCUGCCAUGUCCCAACAAGCUGUUCAGUUUAAACUGCUGAAUGACAUUAUUUGAGCUAUUUAAAGCUUACUUUAGUAUGAACUAAAUGAAGGUUAAAACA | 0.423
UUCCCUCUGUGUAGCUUUGUGGGGAUUUCAUGUAUAUAUGCUGUCUGAAAGAAUCCAGAGGUUGGAGUGCCAAUAGAAAAUGAAAACAAAUGCCUUGUACUACAGGCAGC | 0.903
UUAAUUUAAUGUUUUUUCUUUGUACCUGAUGUGAAUUCUAGCAACCUUUGUUAGGAAAAAGCACAGCCUCAGAUGGAGGCAGCCUAAACUGUGUUCUUGUUUUGUUCAUG | 2.27

Set 5 — method: protein-binding microarray; molecule type: double-stranded DNA, one strand shown; sample: in vitro; concentration: 250 nM; notes: 60-bp whole probe; with: salmon DNA 0.4 mg/ml; relative to: random background probes; direction: higher = stronger binding; constant ends, left off below: GCCTAGCAC … GTCTTGATTCGCTTGACGCTGCTG
Target: Interferon regulatory factor 7, full length, phosphomimetic (IRF7, Homo sapiens, UniProt Q92985, residues 1-503, S101K/S471D/S472D/S475D/S476D/S477D/S483D/S484D/S487D)
Construct (chain): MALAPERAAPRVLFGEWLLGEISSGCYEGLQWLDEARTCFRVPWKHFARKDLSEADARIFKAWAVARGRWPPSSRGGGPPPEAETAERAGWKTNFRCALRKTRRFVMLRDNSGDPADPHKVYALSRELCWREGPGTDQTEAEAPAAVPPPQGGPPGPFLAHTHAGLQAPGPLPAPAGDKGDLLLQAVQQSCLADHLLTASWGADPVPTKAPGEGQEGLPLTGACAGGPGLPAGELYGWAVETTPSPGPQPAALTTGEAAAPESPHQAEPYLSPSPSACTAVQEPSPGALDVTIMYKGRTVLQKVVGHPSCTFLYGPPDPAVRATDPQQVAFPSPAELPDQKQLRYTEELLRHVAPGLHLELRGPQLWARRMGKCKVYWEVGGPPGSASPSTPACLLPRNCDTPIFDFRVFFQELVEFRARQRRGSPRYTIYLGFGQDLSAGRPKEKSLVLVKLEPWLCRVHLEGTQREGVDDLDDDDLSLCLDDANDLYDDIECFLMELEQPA
Strand | log fluorescence
TATTTTTTTTATTTATAAATGTGCTAG | 1.47 z-score
TTAGGACTGCTTATCCTTGAGTGCTAG | -0.126 z-score
TCATGCATCTATCTTAAACTGTGCTAG | -0.132 z-score
GACCATTTCGGGACTGGAGACGTGCTA | 0.825 z-score
TTAGGTTTCCTTTCCCTTTAGTGCTAG | 4.76 z-score
TCATCACTCAATCTCAAACTGTGCTAG | 0.123 z-score
GACAGTTTCGGTATCGGGACGTGCTAG | 9.8 z-score
CACTTTTCCTACATCAGCTGGTGCTAG | 3.31 z-score
TGGTGCTTAGTATTTTTTTCCGTGCTA | -1.02 z-score
GACTGTTTCCTTATCCTGACGTGCTAG | 2.23 z-score

Set 6 — target: UBE2S UBC core domain (UniProt Q16763); method: yeast two-hybrid; sample: yeast; notes: mostly zero background; relative to: not given; direction: higher = stronger interaction
B1: TRIM72 RING domain (UniProt Q6ZMU5); chain APGLLHQELSCPLCLQLFDAPVTAECGHSFCRACLGRVAGEPAADGTVLCPCCQAPTRPQALST
B2: UHRF2 RING domain (UniProt Q96PU4); chain CGGDPEKKCHSCSCRVCGGKHEPNMQLLCDECNVAYHIYCLNPPLDKVPEEEYWYCPSCKTDSSEVVKAGER
B3: TRIM69 RING domain (UniProt Q86WT6); chain VIQDITMELHCPLCNDWFRDPLMLSCGHNFCEACIQDFWRLQAKETFCPECKMLCQYNNCTF
B4: RNF25 RING domain (UniProt Q96BH1); chain LTDNNIPHGQCVICLYGFQEKEAFTKTPCYHYFHCHCLARYIQHMEQELKAQGQEQEQERQHATTKQKAVGVQCPVCREPLVYDLASL
Construct (chain): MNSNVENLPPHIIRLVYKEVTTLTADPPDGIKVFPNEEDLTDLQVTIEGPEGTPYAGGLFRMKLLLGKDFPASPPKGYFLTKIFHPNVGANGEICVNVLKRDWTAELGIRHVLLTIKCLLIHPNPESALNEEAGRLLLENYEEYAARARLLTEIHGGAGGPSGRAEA
Molecule | lacZ reporter activity
B1 (TRIM72 RING domain) | 0
VTLSLTLPITCHICLGKVRQPVICINNHVFCSICIDLWLKNNSQCPACRVPITPENPCK (OBI1 RING domain (UniProt Q5W0B1)) | 0
QLRRLQEERTCKVCMDKEVSVVFIPCGHLVVCQECAPSLRKCPICRGIIKGTVRTF (BIRC2 RING domain (UniProt Q13490)) | 0
B2 (UHRF2 RING domain) | 0
FPEHFVKSISCQICEHILADPVETNCKHVFCRVCILRCLKVMGSYCPSCRYPCFPTDLES (RAG1 RING domain (UniProt P15918)) | 0
YWAMDSTFELCKICAESNKDVKIEPCGHLLCSCCLAAWQHSDSQTCPFCRCEIKGWEAVS (CBLC RING domain (UniProt Q9ULV8)) | 0
B3 (TRIM69 RING domain) | 0
KTLSRFGIQPCSICLGDAKDPVCLPCDHVHCLRCLRAWFASEQMICPYCLTALPDEFSPA (RNF213 RING domain (UniProt Q63HN8)) | 0
B4 (RNF25 RING domain) | 0

Mixed results
Parent: FZR1 docking peptide (human); QDYERRLLRQIVI
Variant | target | assay | test system | conditions | scale | measurement | result
QAYERRLLRQIVI [D2A] | CCNA2, cyclin fold, Cln2 fusion (human) | yeast growth competition, sequencing | yeast | weak parent motif | relative to: not given, higher = stronger binding | normalised enrichment score | 1.3

Repeated from above (set 3):
Strand | bound/input enrichment [ratio]
AUAACGUGUUUCUAUUUGUUGAGGAUAAUUUUGUGAUAAGCUUGUGUUAGAGUUAAAAAUUAGUGAAUUAAUUCCUCUUCAUUGUGUUGCUUUUGUUAUUGAAAAUAAAUGGAACUUUGU | 0.316
AAGCCCUAGUUCUUGAACCAACACCCAUAAAAGAUUUAGAAAAAAGUUUACAACAUAAUCUAGUUUACGAAGACGCCUUGUGCUAGAAUACUUUUUAAAAAGUAUUUUUGAAUACCAUUA | 0.741
CUCCCCUUAAUCCCAUCUCAUCUGUUUCAUAGUGCUGAAAUUCUGUCUUCAGCCUUAUUUUUAGCGAACUUAUUCUAAUUCUAGUGAAACUUCCAGUGUGGAUACUGUGAGCUAUAUGGA | 1.98
UGUCUGCCUCAUUCUGAAAUUUACACAGUAGACCAUUUGUCAUCCAUGCUGUCCCACAAAUAGUUUUUUGUUUACGAUUUAUGACAGGUUUAUGUUACUUCUAUUUGAAUUUCUAUAUUU | 1.29
UCUCUUGCUUAACUGUGUCCGAAGUUGCUAUGAGGAUUGGAAACAUUCAUUAGUUUCAUGUAGAACUACACUGGCAGGUGCUCAGUUCCCAUCAUAGCAAGAUCAAAUACCAUCACAGUA | 0.64
